Published values of several laboratories.
Numbered parts are unrelated; each lists some results of a single study. Changes are numbered by the printed parent chain.

Set 1
Target: ABI1, truncated, D143A, DHFR fusion (Arabidopsis thaliana)
Technique: DHFR PCA, deep sequencing
Sample: yeast
Setting: methotrexate growth selection, single substitutions
Together with: (+)-ABA 0.032 µM
Relative to: wild-type fitted maximum
Direction: higher = stronger binding
Parent: PYL1, truncated, DHFR fusion (Arabidopsis thaliana); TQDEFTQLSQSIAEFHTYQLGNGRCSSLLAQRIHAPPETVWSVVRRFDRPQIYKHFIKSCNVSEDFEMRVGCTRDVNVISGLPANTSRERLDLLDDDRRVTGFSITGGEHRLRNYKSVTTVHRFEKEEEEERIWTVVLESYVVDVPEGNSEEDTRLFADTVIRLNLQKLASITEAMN; partner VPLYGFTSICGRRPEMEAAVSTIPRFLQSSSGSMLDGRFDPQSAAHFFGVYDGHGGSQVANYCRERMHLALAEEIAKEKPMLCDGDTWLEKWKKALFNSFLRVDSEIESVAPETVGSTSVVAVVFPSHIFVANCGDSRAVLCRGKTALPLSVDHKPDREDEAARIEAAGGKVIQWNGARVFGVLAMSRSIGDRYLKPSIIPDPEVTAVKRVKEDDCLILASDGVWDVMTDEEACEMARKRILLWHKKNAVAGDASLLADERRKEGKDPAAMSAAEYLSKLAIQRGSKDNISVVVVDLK
Variant	relative binding score
D144W	-4.34%
E131N	61%
V78C	28.2%
R155H	-0.162%
Q19Y	5.65%
G81D	2.38%
V76H	-3.27%
E4H	12.1%
S150Q	4.47%
R69Y	1.76%
V44Q	-5.5%
Y141L	-2.54%
Y18F	-1.67%
V145T	-5.88%
I105Q	-1.59%
I79R	1.34%
T119Y	0.347%

Set 2
Target: Sal-like protein 4, full length isoform B (SALL4, Homo sapiens, UniProt Q9UJQ4-2, residues 1-616)
Technique: universal PBM
Form: double-stranded DNA, one strand shown
Sample: in vitro
Tested at: not given
Setting: 8-mer, flanks averaged, mean of replicates
Direction: higher = stronger binding
Strand	E-score
AGCGCGAC	-0.223
CGCGAGCC	-0.311
GGACCCCC	-0.471
CGCGGCAG	-0.397
AGAGCAAG	-0.111
ACTATCGG	-0.0232
ACGCACTC	-0.0774
ATAGAGAC	0.0878
CCAATTGG	0.14
AACCGGAC	-0.145
AACAACAG	0.0486
AGCGGACT	-0.165
AATACAAA	0.371
ATGCGCCG	-0.0968
GCCCGTAA	-0.0995
AGCTAAGA	-0.0673

Set 3
Target: Centromere-binding protein 1, full length, His-tagged (CBF1, Saccharomyces cerevisiae, UniProt P17106, residues 1-351)
Sequence of UniProt P17106 (whole entry, looked up): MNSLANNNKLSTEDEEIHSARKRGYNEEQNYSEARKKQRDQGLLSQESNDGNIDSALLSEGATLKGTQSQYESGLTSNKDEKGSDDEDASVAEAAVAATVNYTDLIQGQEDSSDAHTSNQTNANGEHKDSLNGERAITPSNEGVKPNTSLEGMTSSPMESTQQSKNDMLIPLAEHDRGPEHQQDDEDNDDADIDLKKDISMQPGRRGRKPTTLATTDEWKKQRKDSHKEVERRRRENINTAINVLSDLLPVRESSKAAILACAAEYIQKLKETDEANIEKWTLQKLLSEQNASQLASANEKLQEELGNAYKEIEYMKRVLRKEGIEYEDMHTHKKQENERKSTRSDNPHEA
Technique: competition protein-binding microarray
Form: double-stranded DNA, one strand shown
Sample: in vitro
Tested at: 2 µM
Setting: whole 60-bp probe, lowest competitor level
Together with: Pho4 competitor, 0.05 µM
Direction: higher = stronger binding
Strand	fluorescence intensity [a.u.]
CGGGGTTAAGTTTTTCACGTGATCTGCTTGCAGCAGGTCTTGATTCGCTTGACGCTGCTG	5340
ACTATACTCGTCTGGCACGTGAAGTACATGAACTCAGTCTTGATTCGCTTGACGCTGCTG	1270
AAATTACTAAGTTTTCACGTGATCTACCCCGTATGAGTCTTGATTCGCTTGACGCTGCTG	5680
CCGAAATTTGCTTCACACGTGTCTGTTGATAAGCAAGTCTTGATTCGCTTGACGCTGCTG	1480
CTAACGAAGGTTTGGATGGTGGGTGACAAGCCAAGTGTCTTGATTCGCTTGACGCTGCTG	61.5
CTAACGAAGGTTTGCTGTGTGGGTGACAAGCCAAGTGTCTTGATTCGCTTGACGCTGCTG	73.8
CAGACGGGAAGCAGGCGCGTGCTGGCGGTGACCTGGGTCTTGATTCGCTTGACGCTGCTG	66.1
AAATTACTAAGTTGTAGTGTGGGTGACGCCGTATGAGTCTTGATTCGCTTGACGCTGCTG	69.7
CGTCTGCTAATGGCGGACGTGGTCGATGATGAAGAGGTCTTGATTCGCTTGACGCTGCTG	55
ATGCGAGACTTGGATAACGTGTTGAGCATCGAAATAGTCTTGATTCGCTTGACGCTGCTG	103
CTTTCCCGATCTTGATGTGTGGGTGTAGCACATTTGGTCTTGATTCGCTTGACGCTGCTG	80.2
TGAAGAACAGAGCTGCTCGTGACGGAAGAGCTCAAAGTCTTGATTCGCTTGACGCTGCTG	139
TGCGCAACAACTTGCAAGGTGGGTGTATGTCTAGAAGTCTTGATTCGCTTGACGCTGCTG	71.2
AAAGCGGTAATTTGCATAGTGGGTGCAGATATCTATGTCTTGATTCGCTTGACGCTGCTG	78.6
AAATTACTAAGTTTTCACGTGTAGTACCCCGTATGAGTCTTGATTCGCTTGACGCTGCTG	734
CGTCCTAGTGATTGCACAGTGGGTGCCATGAGGAAGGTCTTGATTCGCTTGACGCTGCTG	76.2
CTTCTGTAAATTTGTTAGGTGGGTGGACGCGCCCCGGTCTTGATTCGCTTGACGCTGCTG	96.8
TAAATGGTTCAAATTCACGTGGGTAATAATATGATTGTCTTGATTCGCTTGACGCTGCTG	1280
CATATGTTTTAGCTGATTATAATTCTTCGATCGATGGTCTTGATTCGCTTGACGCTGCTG	137

Set 4
Target: RING finger protein unkempt homolog, zinc fingers 1-6, SBP tag (UNK, Homo sapiens, UniProt Q9C0B0, residues 30-357)
Sequence of UniProt Q9C0B0 (30-357, looked up): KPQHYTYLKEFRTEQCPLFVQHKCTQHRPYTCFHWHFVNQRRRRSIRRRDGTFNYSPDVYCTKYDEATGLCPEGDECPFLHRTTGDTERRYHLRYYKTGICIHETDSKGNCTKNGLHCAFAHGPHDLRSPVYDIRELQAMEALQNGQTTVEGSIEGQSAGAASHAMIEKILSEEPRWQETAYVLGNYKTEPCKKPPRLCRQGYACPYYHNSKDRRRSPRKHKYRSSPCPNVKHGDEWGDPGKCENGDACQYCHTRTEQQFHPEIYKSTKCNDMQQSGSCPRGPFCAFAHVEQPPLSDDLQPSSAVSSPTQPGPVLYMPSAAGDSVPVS
Technique: RNA Bind-n-Seq
Form: RNA
Sample: in vitro
Tested at: 100 nM
Setting: RNA with constant flanks, vertebrate orthologous sites, ends assumed
Relative to: input RNA pool
Direction: higher = stronger binding
Strand	bound/input enrichment [ratio]
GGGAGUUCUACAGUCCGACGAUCUGUACUUGGAAAAAACAUCAUCCUAAUUUUAAGCUAGUCACAGUGAUAACUAGUCUGUGCUAGUGGAAUCAUUUACUCUUACCUUUUAAAUUAUCUUCUUUGUCUGAUACCUGAAACCAACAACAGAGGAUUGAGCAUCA	0.904
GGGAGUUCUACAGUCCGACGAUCAAUAUAAGGACUCUUGCAGCCUUAGAUGUUAUAAAAAUAUAUCUGAAUUGUAAGAGUUGCUUAGCAGUUUUUUUUUUUAAGCACUUGUUUUGGGUACAAGGCAUUUCUGAUAUAGUUUUACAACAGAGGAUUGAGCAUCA	0.777
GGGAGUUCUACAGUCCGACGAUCUUGCCUACAAUAAUGAAAACCUAAAGGAAUUUUUUAUUUUUAAUUUUCCCCUUAGGCAUAUUUAGACAUCUUUUUUCCAGGCAGAUCAUUCAGAGUGUGCGAGUGUGUGUGCACAUGUUACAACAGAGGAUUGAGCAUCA	0.755
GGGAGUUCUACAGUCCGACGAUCGUUGUGACCCAUUUAACAUACACAAAAAACUAGCCAAAAAAAAUUUGCAUGUAAUUGACUUAGAUGAUGCCACUUUUCUGAGUGCAAAAUUUGGAAGACAGCUUGUACCUGGUUGGAAACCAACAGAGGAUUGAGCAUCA	1.62
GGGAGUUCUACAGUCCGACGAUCUCCCAGCACUCUGAUAAAAAGUGUGGACUGGUUGCUUGUAUUUUCCUUAUUCUUUUUAAUUAGUUUUAUUAUGUAUGCUACCAUUCGAACUGAGAGCAUUCGGUGGCUAAUUCCAGGACACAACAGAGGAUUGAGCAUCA	2
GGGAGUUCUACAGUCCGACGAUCCUUAUUUCCAGGUUGGCUCUAGUGGAAAAGUCAUAGGAAUUGACCACAUUAAAGAGCUAGUAGAUGACUCAAUAAAUAAUGUCAAAAAGGACGAUCCAGUGCUUUUGUCUUCAGGGAGAGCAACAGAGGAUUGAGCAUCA	0.731
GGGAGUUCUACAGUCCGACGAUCCAGCUUAGCGAACACAGUUUUGGAGAAAUAAUAAUAAUAAUAUUUAAAAAAGAAAGAGCCUGAUUGGUAUCUUUUUGUCUAACUGUUUUUCAAAGAGAAAGUUUAAAAGAAAAAAAAAGACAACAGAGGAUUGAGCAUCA	0.414
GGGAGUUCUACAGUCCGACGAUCCAUUUUCUUAUUUUAGGUAUCAUUGCCCAAUGCCUAAGAUCUUUUAUGUUCAGCUAACGGUAGGAAAUAACGAGUUUUUUGGUGAAGGAAAGACUCGACAAGCUGCAAGGCACAAUGCUGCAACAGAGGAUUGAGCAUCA	0.613

Mixed results
Molecule	target	test	test system	how to read	measurement	value
VSAVQKLDFSDTM	human cyclin B3	cyclin docking binding, deep mutational scanning	peptide, yeast cyclin B3-Cln2 system	direction not given	Cln2-subtracted enrichment score	-0.299
